Measured values from different studies.
A part holds a random share of what one study measured. Substitutions count along the parent as printed.

Study 1 — technique: DHFR PCA, deep sequencing; sample: yeast; added: (+)-ABA 17 µM; baseline: wild-type fitted maximum; reading: higher = stronger binding; quantity: relative binding score
Target: ABI1, truncated, D143A, DHFR fusion (Arabidopsis thaliana)
Notes: methotrexate growth selection, single substitutions
Starting sequence: PYL1, truncated, DHFR fusion (Arabidopsis thaliana); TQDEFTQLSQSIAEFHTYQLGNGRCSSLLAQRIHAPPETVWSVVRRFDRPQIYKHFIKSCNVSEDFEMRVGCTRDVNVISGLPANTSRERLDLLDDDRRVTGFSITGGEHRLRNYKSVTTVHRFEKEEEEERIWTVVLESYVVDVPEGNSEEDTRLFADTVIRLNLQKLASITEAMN; partner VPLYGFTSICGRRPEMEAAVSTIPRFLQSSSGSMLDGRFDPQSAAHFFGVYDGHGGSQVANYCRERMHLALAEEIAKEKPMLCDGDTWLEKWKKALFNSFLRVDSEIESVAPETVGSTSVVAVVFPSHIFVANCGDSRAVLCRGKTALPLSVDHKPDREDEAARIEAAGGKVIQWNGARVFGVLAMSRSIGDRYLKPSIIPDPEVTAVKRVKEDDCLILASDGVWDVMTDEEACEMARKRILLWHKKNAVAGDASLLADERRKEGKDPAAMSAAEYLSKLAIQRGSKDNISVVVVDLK
R163G: 62.8%
P146S: 18.2%
R45Y: 9.93%
C25H: -2.93%
T6L: 79%
E128M: 76.8%
P83R: 11.2%
Q2N: 83.8%
R46C: 63.9%
V70Y: 7.15%
L28R: 56.3%
T1W: 80%

Study 2 — technique: RNA Bind-n-Seq; form: RNA; sample: in vitro; tested at: 365 nM; baseline: no-protein control; reading: higher = stronger binding; quantity: RBNS enrichment (R)
Target: RNA binding protein fox-1 homolog 2, RRM domain, GST-SBP tag (RBFOX2, Homo sapiens, UniProt O43251-10, residues 100-194)
Notes: natural RNA segment, single round, ends assumed
All sequences stand within: GGGAGUUCUACAGUCCGACGAUC … UGGAAUUCUCGGGUGCCAA
Target sequence (chain): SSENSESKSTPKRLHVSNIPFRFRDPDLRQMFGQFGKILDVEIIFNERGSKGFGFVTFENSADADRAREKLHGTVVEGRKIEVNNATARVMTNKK
CACGGGUCCUGCUCCCGCGAUGUGGAAGUGUCACACGGCACCUGUACAAAAAGACUGGCUAACCCCUCUUCCUAUUACCUUGAUCUCUUCCCCCAACUUCCUAACACUUA: 0.583
UCUGCCUUUAUCUUGCCUCUGGCCUUAUAUUUCAUACUUUGUUCAAUAUGGCUGGAUAAUAAACACUCCUGGGUAGAGGAGGCCAGGAGCCUCACUGUCCCAAUUCCCAA: 0.22
GAUGGGAGGUCUCACCGGCCACAGUGAGGGUUGUUUCCUGACAAGACUUUUGUGUUAAGGAUGUGUUGUGUGCUGGUAGAUGUUCAGGAGUGGCUCUGACCCCCAACCUA: 1.1
ACUGGAAAGAGCUUUAGGACAGCUUAGAUGCCGAGUGGGCGAAUGCCAGACCAAUGAUACCCAGAGCUACCUGCCGCCAACUUGUUGAGAUGUGUGUUUGACUGUGAGAG: 1.62
AAGGAGAUGACCGGAAGCAACCCCUUCACAGACACGAGCACAUCGGCAAACCCUAUGAAAGUGGAAUUUUCUAACAAAAUAAACUUGCUUGUUUGAUCUGUUUUCUGUAA: 0.377
CUGGACUUGUCCAAUUAAUGAAGUUGAUUCAUAUUGCAUCAUAGUUUGCUUUGUUUAAGCAUCACAUUAAAGUUAAACUGUAUUUUAUGUUAUUUAUAGCUGUAGGUUUU: 8.65
ACAAAACGAAACAAACCUCUCCAGUCUCUAAUUUAUGCCUAUGCAAAAAAUAAAGGAUGCCCAGGAUAUUGGAGUGUGCUUUUUUCUGGUUGUCACAGAGCAACUCAGCU: 0.606
ACAAUGAUAUCUGUAUGUCACUGUAAUGUUGGCCUUCGUGGGGAACCACACUUGGUGGAGCCCGAUUCCCUUGUCUCAGACCAUGGUUAGUUACAUAAUUUUAUGGACUA: 0.264

Study 3 — technique: competition protein-binding microarray; form: double-stranded DNA, one strand shown; sample: in vitro; tested at: 2 µM; added: Pho4 competitor, 0.05 µM; reading: higher = stronger binding; quantity: fluorescence intensity; all sequences stand within: … GTCTTGATTCGCTTGACGCTGCTG
Target: Centromere-binding protein 1, full length, His-tagged (CBF1, Saccharomyces cerevisiae, UniProt P17106, residues 1-351)
Chain of UniProt P17106 (whole entry, looked up): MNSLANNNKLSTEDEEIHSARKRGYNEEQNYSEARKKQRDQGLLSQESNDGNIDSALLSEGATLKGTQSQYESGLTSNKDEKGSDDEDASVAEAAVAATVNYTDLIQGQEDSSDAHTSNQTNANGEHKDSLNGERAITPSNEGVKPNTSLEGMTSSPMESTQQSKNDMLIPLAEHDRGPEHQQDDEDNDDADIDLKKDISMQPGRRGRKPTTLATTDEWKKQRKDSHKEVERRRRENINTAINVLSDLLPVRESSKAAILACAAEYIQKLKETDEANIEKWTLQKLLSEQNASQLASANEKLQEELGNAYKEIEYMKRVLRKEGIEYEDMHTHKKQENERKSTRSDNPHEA
Notes: whole 60-bp probe, lowest competitor level
AAGATATATGAATAGGACGTGTCGGTAGAACTAGTA: 72.2 a.u.
TTACCATGCCAATCAAACGTGCAAAAAAGATGAGTA: 96.9 a.u.
GTTAATTTATTCCATCACGGCTGTAATGTAACCAAC: 104 a.u.
TATTTAATGCGACAGGTGGAAATCAGGACTATGCAG: 81.6 a.u.
CGTCCTAGTGATTGGATAGTGGGTGCCATGAGGAAG: 70.7 a.u.
TCGACTACTCAGTCGGACGTGGCCGTTCAGAAGGTG: 61.2 a.u.
CTTTCCCGATCTTGGGCAGTGGGTGTAGCACATTTG: 71.5 a.u.
AAATTACTAAGTTGGCCCGTGGGTGACGCCGTATGA: 54.7 a.u.
CGTCCTAGTGATTGTCACCGTACTTCCATGAGGAAG: 71.5 a.u.
CAACACAAAGTTCGTCACGTCATTTAGCTGATAACG: 132 a.u.
GTAACTTGGCGCTCTCTCGTGCCAGTGGTGATTTTG: 64.9 a.u.
CTTTCCCGATCTTGTTCAGTGGGTGTAGCACATTTG: 66.5 a.u.
TCAGTTCAAGCAGGGAACGTGCCAGACATGGCTAGT: 79.9 a.u.
CAATGGGTAAGCAGAGGCGTGCGATCCCTGTGTGGT: 52.7 a.u.
GATTCAGATCTGAGACTTGGGTAGCATTTGACAGAC: 80.9 a.u.
CTAACGAAGGTTTGTCACGAAACTTACAAGCCAAGT: 85.6 a.u.
CTGATGTCTGTTTTCAACATGATGTCCAATGGTGCC: 82.1 a.u.

Study 4 — target: CCNB2, cyclin fold, Cln2 fusion (human); technique: yeast growth competition, sequencing; sample: yeast; notes: weak parent motif; baseline: not given; reading: higher = stronger binding; quantity: normalised enrichment score
Starting sequence: SCAPER docking peptide (human); SNARRSLNFGGST; partner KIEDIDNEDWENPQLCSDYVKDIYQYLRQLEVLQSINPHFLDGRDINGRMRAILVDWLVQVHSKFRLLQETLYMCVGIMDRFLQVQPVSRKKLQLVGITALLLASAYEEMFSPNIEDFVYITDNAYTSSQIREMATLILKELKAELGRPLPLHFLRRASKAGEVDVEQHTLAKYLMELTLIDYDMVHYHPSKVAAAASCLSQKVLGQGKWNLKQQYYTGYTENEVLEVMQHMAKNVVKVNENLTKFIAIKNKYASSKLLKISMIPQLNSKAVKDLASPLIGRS
A3G: 0.199
T13W: -0.124
N8Q: 0.179
A3Y: 0.0733
L7P: -0.101
N8Y: -0.334
S6A: 0.396
G10P: 0.603
R5K F9L: -0.0128
R4L: -0.396
L7H: 0.384
T13D: 0.258
A3R: -0.178
G10Q: 0.458
R4K: 0.163
R4N: 0.184
R4C: -0.392
G11N: -0.0519
